Results collected from several papers.
Compare with care: the assays were run in different laboratories. Numbers after ± are the reported error.

CCCC[C@H](NC(=O)CNC(=O)CNC(=O)CN1CCN(CC(=O)O)CCN(CC(=O)O)CCN(CC(=O)O)CC1)C(=O)N[C@H]1CC(=O)NCCCC[C@@H](C(N)=O)NC(=O)[C@H](Cc2c[nH]c3ccccc23)NC(=O)[C@H](CCCNC(=N)N)NC(=O)[C@@H](Cc2ccccc2)NC(=O)[C@H](Cc2c[nH]cn2)NC1=O [copper-64 labelled] — tissue uptake (female C57 mouse, B16/F1 melanoma, bone; intravenous, 0.037 MBq, 0.5 h): 1.07 ± 0.24 %ID/g
CC(C)[C@H](NC(=O)[C@@H]1CCCN1C(=O)[C@H](CCCNC(=N)N)NC(=O)[C@H](CS)NC(=O)[C@H](Cc1c[nH]c2ccccc12)NC(=O)[C@H](CCCNC(=N)N)NC(=O)[C@@H](Cc1ccccc1)NC(=O)[C@H](Cc1c[nH]cn1)NC(=O)[C@H](CCC(=O)O)NC(=O)[C@H](CS)NC(=O)[C@H](CS)NC(=O)[C@@H]1CC(=O)N[C@@H](CCCNC(=N)N)C(=O)NCC(=O)N[C@@H](CC(=O)O)C(=O)N[C@H](Cc2ccc(O)cc2)C(=O)N1)C(N)=O [technetium-99m labelled] — tissue uptake (C57 mouse, female, B16/F1 melanoma, blood; intravenous, 0.037 MBq, 24 h): 0.08 ± 0.07 %ID/g
O=C([O-])CN1CCN(CC(=O)[O-])CCN(CC(=O)NCCc2ccc3c(c2)C2C=CCC2C(c2cc4c(cc2Br)OCO4)N3)CCN(CC(=O)[O-])CC1.[111In+3] (centres unmarked) — tissue uptake (mouse, Hec50 endometrial tumour, muscle; 2 h post injection): 0.13 ± 0.06 %ID/g
CN(C)c1ccc(-c2nc3ccc(OCCCCCN4CCN5CCN(CC4)CC(=O)[O][Al]([18F])[O]C(=O)C5)cc3s2)cc1 — tissue uptake (ICR mouse, pancreas; intravenous, 60 min): 1.14 ± 0.7 %ID/g
CN1C(=O)[C@@H](Cc2ccc(O)c(I)c2)NC(=O)CNC(=O)[C@H](Cc2ccc3ccccc3c2)NC(=O)[C@H](CCCNC(=N)N)NC(=O)[C@H]1CCCNC(=O)c1ccc(CNC(=O)CN2CCN(CC(=O)O)CCN(CC(=O)O)CCN(CC(=O)O)CC2)cc1 [lutetium-177 labelled] — tissue uptake (female CB-17 SCID mouse, Daudi xenograft, muscle; intravenous, 6 h, CXCR4 blocking, with: AMD3100 2 mg/kg coinjected): 0.06 ± 0.001 %ID/g
CCCC[C@H](NC(=O)CNC(=O)CNC(=O)CN1CCN(CC(=O)O)CCN(CC(=O)O)CCN(CC(=O)O)CC1)C(=O)N[C@H]1CC(=O)NCCCC[C@@H](C(N)=O)NC(=O)[C@H](Cc2c[nH]c3ccccc23)NC(=O)[C@H](CCCNC(=N)N)NC(=O)[C@@H](Cc2ccccc2)NC(=O)[C@H](Cc2c[nH]cn2)NC1=O [lead-203 labelled] — tissue uptake (C57 mouse, lung; intravenous, 0.056 MBq, 4 h): 0.28 ± 0.15 %ID/g
CCCC[C@H](NC(=O)CNC(=O)CNC(=O)CN1CCN(CC(=O)O)CCN(CC(=O)O)CC1)C(=O)N[C@H]1CC(=O)NCCCC[C@@H](C(N)=O)NC(=O)[C@H](Cc2c[nH]c3ccccc23)NC(=O)[C@H](CCCNC(=N)N)NC(=O)[C@@H](Cc2ccccc2)NC(=O)[C@H](Cc2c[nH]cn2)NC1=O [copper-64 labelled] — tissue uptake (female C57 mouse, B16/F1 melanoma, lung; intravenous, 0.037 MBq, 2 h): 0.56 ± 0.09 %ID/g
CC(C)[C@H](NC(=O)[C@@H]1CCCN1C(=O)[C@H](CCCNC(=N)N)NC(=O)[C@H](CS)NC(=O)[C@H](Cc1c[nH]c2ccccc12)NC(=O)[C@H](CCCNC(=N)N)NC(=O)[C@@H](Cc1ccccc1)NC(=O)[C@H](Cc1c[nH]cn1)NC(=O)[C@H](CCC(=O)O)NC(=O)[C@H](CS)NC(=O)[C@H](CS)NC(=O)CNC(=O)[C@@H]1CC(=O)N[C@@H](CCCNC(=N)N)C(=O)NCC(=O)N[C@@H](CC(=O)O)C(=O)N[C@H](Cc2ccc(O)cc2)C(=O)N1)C(N)=O [technetium-99m labelled] — tissue uptake (C57 mouse, female, B16/F1 melanoma, pancreas; intravenous, 0.037 MBq, 2 h): 0.33 ± 0.11 %ID/g

For quick reference, copied from above:
CN(C)c1ccc(-c2nc3ccc(OCCCCCN4CCN5CCN(CC4)CC(=O)[O][Al]([18F])[O]C(=O)C5)cc3s2)cc1 — tissue uptake (ICR mouse, pancreas; intravenous, 60 min): 1.14 ± 0.7 %ID/g
